{"data": "Measurements pooled from the literature", "note": "Every numbered part comes from another study and shows a few of its results, in no order. Changes are numbered by the printed parent chain.", "UniProt O75716, sequence (whole entry, looked up)": "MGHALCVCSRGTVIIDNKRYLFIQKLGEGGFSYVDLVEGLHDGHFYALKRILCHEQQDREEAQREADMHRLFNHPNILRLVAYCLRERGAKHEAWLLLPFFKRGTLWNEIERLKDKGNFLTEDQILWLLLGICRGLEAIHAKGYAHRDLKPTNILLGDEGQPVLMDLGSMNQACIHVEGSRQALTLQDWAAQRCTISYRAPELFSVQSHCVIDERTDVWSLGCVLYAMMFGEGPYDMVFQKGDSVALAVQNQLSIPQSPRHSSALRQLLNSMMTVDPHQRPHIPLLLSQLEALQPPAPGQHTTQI", "UniProt P54762, sequence (whole entry, looked up)": "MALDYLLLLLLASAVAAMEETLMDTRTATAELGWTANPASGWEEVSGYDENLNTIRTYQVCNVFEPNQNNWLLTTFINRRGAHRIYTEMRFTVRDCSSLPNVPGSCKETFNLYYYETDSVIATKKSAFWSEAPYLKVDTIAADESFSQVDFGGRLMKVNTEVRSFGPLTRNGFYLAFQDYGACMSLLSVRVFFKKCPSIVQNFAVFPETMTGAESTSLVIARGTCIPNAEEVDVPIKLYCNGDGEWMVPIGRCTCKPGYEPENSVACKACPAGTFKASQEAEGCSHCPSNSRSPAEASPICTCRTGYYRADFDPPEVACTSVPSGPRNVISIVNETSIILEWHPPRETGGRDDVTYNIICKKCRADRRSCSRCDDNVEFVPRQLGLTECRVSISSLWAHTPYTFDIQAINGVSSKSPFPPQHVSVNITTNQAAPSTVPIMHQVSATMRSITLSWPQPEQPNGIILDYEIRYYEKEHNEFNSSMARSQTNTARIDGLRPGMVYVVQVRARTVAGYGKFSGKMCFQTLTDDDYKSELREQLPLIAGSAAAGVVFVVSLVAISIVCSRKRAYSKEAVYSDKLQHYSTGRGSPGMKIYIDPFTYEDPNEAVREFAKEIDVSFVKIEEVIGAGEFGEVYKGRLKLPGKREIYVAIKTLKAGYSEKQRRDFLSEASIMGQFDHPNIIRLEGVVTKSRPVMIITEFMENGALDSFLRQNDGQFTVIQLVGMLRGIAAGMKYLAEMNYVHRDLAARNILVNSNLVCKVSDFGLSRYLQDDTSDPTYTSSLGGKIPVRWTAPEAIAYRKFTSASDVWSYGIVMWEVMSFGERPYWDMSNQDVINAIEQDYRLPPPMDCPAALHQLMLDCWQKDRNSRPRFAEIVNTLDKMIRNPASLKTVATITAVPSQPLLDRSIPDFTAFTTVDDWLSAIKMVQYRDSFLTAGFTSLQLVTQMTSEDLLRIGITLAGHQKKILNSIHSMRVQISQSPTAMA", "UniProt Q9H3Y6, sequence (whole entry, looked up)": "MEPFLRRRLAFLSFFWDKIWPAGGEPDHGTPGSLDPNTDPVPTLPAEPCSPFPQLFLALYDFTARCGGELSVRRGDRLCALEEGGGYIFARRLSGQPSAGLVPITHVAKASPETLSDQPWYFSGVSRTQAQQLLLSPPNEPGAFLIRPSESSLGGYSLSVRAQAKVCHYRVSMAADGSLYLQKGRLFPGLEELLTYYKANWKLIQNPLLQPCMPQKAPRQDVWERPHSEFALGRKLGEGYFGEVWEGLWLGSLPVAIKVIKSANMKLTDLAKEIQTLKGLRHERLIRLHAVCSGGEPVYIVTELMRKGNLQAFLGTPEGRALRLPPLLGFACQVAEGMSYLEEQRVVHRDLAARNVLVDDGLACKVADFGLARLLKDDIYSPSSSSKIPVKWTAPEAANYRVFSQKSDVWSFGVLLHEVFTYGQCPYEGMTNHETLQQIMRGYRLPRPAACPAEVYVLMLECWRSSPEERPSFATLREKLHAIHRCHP", "UniProt O95819, sequence (whole entry, looked up)": "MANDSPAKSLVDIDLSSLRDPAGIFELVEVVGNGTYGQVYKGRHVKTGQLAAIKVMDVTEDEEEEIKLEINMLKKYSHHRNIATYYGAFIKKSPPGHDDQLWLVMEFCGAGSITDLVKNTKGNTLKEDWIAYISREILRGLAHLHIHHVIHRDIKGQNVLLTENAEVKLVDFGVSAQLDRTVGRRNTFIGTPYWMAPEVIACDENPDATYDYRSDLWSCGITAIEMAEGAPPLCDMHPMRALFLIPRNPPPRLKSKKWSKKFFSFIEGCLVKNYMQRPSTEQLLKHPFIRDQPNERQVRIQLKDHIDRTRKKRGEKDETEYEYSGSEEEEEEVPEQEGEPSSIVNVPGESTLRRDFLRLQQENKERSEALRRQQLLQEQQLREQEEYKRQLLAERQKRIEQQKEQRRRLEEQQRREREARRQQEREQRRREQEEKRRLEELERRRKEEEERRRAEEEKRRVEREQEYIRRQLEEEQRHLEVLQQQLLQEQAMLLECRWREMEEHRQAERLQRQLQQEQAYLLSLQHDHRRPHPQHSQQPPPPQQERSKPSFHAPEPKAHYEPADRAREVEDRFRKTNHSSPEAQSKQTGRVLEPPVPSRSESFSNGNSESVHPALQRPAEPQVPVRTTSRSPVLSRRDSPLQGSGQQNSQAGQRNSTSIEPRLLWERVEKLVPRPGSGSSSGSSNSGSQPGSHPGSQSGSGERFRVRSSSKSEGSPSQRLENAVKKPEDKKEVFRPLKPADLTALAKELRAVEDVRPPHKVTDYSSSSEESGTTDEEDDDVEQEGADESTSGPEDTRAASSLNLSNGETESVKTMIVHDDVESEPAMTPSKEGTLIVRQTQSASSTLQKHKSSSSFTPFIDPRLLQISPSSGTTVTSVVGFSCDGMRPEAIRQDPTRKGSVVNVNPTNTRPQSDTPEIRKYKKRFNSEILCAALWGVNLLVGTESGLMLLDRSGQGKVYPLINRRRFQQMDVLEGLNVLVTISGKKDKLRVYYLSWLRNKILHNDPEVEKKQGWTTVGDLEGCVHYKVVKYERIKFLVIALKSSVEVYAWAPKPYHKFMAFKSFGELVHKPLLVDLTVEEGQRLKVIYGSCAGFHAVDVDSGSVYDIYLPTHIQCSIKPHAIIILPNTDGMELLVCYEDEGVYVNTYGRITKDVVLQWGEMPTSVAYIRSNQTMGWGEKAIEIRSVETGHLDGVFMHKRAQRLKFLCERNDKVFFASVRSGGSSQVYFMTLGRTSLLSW", "UniProt Q9UK32, sequence (whole entry, looked up)": "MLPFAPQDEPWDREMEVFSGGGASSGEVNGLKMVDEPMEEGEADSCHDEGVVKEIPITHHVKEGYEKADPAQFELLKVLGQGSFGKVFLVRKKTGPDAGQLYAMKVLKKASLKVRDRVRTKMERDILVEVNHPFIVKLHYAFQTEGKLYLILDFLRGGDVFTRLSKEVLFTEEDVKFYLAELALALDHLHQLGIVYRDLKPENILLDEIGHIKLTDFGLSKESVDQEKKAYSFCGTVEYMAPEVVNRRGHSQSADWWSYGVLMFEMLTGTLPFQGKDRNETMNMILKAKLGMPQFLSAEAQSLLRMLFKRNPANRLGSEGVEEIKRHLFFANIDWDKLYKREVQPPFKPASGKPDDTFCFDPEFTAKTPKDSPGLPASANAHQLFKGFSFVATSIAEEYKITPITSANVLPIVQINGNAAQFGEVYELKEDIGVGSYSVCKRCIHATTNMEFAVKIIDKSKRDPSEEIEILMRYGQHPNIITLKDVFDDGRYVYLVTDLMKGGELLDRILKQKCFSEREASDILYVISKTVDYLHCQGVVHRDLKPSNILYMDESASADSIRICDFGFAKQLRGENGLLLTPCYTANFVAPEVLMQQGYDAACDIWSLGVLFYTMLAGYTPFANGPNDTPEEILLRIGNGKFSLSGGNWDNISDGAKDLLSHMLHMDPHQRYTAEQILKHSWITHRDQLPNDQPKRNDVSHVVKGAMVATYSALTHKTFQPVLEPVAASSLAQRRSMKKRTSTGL"}
{"data": "Study 1", "target": "Alpha-2C adrenergic receptor (ADRA2C, Homo sapiens, UniProt P18825)", "read-out": "ligand displacement", "concentration": "10 µM", "UniProt P18825, sequence (whole entry, looked up)": "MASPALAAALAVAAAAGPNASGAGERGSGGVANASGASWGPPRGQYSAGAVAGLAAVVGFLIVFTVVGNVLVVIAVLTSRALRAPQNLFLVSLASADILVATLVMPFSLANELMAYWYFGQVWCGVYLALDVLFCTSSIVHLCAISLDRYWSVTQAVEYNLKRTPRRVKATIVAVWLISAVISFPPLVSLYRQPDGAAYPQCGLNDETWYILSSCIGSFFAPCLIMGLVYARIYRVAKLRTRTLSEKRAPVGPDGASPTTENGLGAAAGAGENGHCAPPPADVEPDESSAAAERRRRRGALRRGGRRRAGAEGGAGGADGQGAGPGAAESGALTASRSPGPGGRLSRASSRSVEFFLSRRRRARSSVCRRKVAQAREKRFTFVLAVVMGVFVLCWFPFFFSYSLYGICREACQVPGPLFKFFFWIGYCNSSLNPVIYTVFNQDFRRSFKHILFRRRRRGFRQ"}
{"SMILES": "Nc1cnc(N2CCc3cc(S(=O)(=O)Nc4c(F)cc(Cl)cc4F)cc(N4CCCC4=O)c32)nc1", "inhibition [%]": -14.3}
{"SMILES": "NC(=O)c1ccc2nc(-c3ccc(C4(N)CCC4)cc3)c(-c3ccccc3)n2n1", "inhibition [%]": 38.9}
{"SMILES": "CN(C)c1ncnc(-c2ccc3nc(Nc4cc(CN5CCN(C(=O)CC(F)(F)F)CC5)ccn4)[nH]c3c2)c1Cl", "inhibition [%]": 7.09}
{"SMILES": "CNC(=N)NCCC[C@H](NC(=O)[C@H](CC(C)C)NC(=O)NNC(=O)[C@H](Cc1ccccc1)NC(=O)[C@H](CO)NC(=O)[C@H](CC(N)=O)NC(=O)[C@@H](Cc1ccncc1)NC(=O)[C@H](N)Cc1ccc(O)cc1)C(=O)N[C@@H](Cc1ccccc1)C(N)=O", "inhibition [%]": 4.19}
{"SMILES": "C[C@@H](c1cccc(C#N)c1)n1cc(Cl)cc(C(N)=O)c1=N", "inhibition [%]": 3.93}
{"SMILES": "CCOc1ccc(S(=O)(=O)Nc2ccc(Cl)cc2C#Cc2cnc(C(=O)O)cc2OC)c2ncccc12", "inhibition [%]": 27.7}
{"SMILES": "Cn1cc(Cl)c2c(Oc3c(F)cc(Nc4cc(Cl)nc(N)n4)cc3F)ccnc21", "inhibition [%]": -6.8}
{"SMILES": "CN1CCN(c2cnc3c(C4CCN(C(=O)c5ccc(OC(F)(F)F)cc5N)CC4)ncnc3c2)CC1", "inhibition [%]": -2.34}
{"SMILES": "CC1CCN(c2ccnc(NCc3cn(C)cn3)n2)CC1", "inhibition [%]": 51.8}
{"SMILES": "C[C@@H]1CN(c2cc(-c3n[nH]c4ccc(OC5(C)CC5)cc34)ncn2)C[C@H](C)O1", "inhibition [%]": 7.85}
{"SMILES": "CC(=O)N1CCC(c2ccc(C(=O)NC3=NCCN3)cc2C(F)(F)F)CC1", "inhibition [%]": 16.3}
{"SMILES": "CCc1ccccc1C(=O)Nc1n[nH]c2c(C)c(F)c(C3C(C#N)=C(C)N(C)C(C)=C3C#N)cc12", "inhibition [%]": 10}
{"SMILES": "COc1cc(-c2cn(C3CCc4c(F)cccc4N(CC(F)(F)F)C3=O)nn2)ccc1-n1cnc(C)c1 (stereo not shown)", "inhibition [%]": 38.3}
{"SMILES": "Nc1nc(NCc2ccccc2)nc(-c2ccccc2CO)n1", "inhibition [%]": 0.87}
{"SMILES": "O=C(N[C@H]1CCCCC/C=C\\C2C[C@@]2(C(=O)O)NC(=O)[C@@H]2C[C@@H](Oc3ccncc3)CN2C1=O)OC1CCCC1 (stereo partly shown)", "inhibition [%]": -4.47}
{"SMILES": "COc1ccc2cc(OCC3(C(=O)O)CN(C(=O)c4ccc(F)cc4)C3)ccc2c1", "inhibition [%]": 9.72}
{"data": "Study 2", "SMILES": "COc1ccc2c(c1)c(C1=C(c3c[nH]c4ccccc34)C(=O)NC1=O)cn2CCCN(C)C", "read-out": "enzyme activity", "action": "inhibitor", "concentration": "0.5 µM", "relative to": "control"}
{"target": "MAP4K4 (Homo sapiens, UniProt O95819)", "remaining activity": "37.8%"}
{"target": "STK16 (Homo sapiens, UniProt O75716)", "remaining activity": "93.1%"}
{"target": "SRMS (Homo sapiens, UniProt Q9H3Y6)", "remaining activity": "95.9%"}
{"target": "RPS6KA6 (Homo sapiens, UniProt Q9UK32)", "remaining activity": "4.52%"}
{"target": "EPHB1 (Homo sapiens, UniProt P54762)", "remaining activity": "91.7%"}
{"data": "Study 3", "target": "Eukaryotic initiation factor 4A-I (EIF4A1, Homo sapiens, UniProt P60842, residues 1-406, full length assumed)", "technique": "RNA Bind-n-Seq", "form": "RNA", "medium": "in vitro", "concentration": "90 pmol", "notes": "4-mer, random 30-nt RNA, single round", "together with": "3 µM iPr-DMDA-PatA, 2 mM ADP, 2 mM phosphate", "relative to": "input library", "reading": "higher = stronger binding", "UniProt P60842, sequence (whole entry, looked up)": "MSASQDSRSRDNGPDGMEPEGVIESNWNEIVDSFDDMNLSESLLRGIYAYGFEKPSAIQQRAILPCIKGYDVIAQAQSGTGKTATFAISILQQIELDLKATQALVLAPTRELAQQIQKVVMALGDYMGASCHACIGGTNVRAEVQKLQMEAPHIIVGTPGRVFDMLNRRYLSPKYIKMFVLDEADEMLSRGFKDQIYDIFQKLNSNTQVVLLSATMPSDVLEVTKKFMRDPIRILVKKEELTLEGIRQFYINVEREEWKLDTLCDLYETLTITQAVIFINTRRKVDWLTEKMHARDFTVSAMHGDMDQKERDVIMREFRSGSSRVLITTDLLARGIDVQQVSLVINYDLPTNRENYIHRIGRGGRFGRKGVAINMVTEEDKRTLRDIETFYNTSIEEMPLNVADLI"}
{"Oligonucleotide": "CAAU", "4-mer enrichment [fold]": 1.14}
{"Oligonucleotide": "UUAA", "4-mer enrichment [fold]": 1.36}
{"Oligonucleotide": "UCCU", "4-mer enrichment [fold]": 0.959}
{"Oligonucleotide": "GUGU", "4-mer enrichment [fold]": 0.858}
{"Oligonucleotide": "UAGG", "4-mer enrichment [fold]": 0.884}
{"Oligonucleotide": "GAGA", "4-mer enrichment [fold]": 1.31}
{"Oligonucleotide": "CGUU", "4-mer enrichment [fold]": 0.888}
{"Oligonucleotide": "UACG", "4-mer enrichment [fold]": 1.02}
{"data": "Study 4", "target": "CCND3, cyclin fold, Cln2 fusion (human)", "technique": "yeast growth competition, sequencing", "medium": "yeast", "notes": "weak parent motif", "relative to": "not given", "reading": "higher = stronger binding", "parent": "BRCA2 docking peptide (human); PSIKRNLLNEFDR"}
{"Variant": "PQIKRNLLNEFDR [S2Q]", "normalised enrichment score": 0.21}
{"Variant": "PSIKRNLLNEFDW [R13W]", "normalised enrichment score": 0.176}
{"Variant": "PSIKRNPLNEFDR [L7P]", "normalised enrichment score": 0.0674}
{"Variant": "PSIKRNLDNEFDR [L8D]", "normalised enrichment score": 0.0453}
{"Variant": "PSIKRDLLNEFDR [N6D]", "normalised enrichment score": 0.0673}
{"Variant": "PSIKRNLLNFFDR [E10F]", "normalised enrichment score": 0.153}
{"Variant": "PSIARNLLNEFDR [K4A]", "normalised enrichment score": 0.154}
{"Variant": "PSIKRNLLTEFDR [N9T]", "normalised enrichment score": 0.257}
{"note": "Repeated from above (study 4):"}
{"Variant": "PQIKRNLLNEFDR [S2Q]", "normalised enrichment score": 0.21}
{"Variant": "PSIKRNLLNEFDW [R13W]", "normalised enrichment score": 0.176}
